Assay results of several laboratories.
Each numbered part is a random draw from the data of one study; scales do not carry over between parts.
Sequence of UniProt P51955 (whole entry, looked up): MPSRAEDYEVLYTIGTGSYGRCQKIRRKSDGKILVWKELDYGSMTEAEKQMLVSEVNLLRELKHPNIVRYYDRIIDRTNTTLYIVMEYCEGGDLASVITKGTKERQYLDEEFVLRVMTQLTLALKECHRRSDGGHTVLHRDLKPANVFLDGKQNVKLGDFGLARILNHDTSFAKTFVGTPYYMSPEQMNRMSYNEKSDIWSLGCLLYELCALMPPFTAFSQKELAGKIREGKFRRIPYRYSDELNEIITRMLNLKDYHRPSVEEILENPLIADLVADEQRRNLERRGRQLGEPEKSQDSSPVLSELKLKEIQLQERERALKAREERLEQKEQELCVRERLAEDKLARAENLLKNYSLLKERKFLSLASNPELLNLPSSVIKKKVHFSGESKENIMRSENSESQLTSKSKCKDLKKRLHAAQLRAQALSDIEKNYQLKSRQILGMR
Sequence of UniProt Q9BZL6 (whole entry, looked up): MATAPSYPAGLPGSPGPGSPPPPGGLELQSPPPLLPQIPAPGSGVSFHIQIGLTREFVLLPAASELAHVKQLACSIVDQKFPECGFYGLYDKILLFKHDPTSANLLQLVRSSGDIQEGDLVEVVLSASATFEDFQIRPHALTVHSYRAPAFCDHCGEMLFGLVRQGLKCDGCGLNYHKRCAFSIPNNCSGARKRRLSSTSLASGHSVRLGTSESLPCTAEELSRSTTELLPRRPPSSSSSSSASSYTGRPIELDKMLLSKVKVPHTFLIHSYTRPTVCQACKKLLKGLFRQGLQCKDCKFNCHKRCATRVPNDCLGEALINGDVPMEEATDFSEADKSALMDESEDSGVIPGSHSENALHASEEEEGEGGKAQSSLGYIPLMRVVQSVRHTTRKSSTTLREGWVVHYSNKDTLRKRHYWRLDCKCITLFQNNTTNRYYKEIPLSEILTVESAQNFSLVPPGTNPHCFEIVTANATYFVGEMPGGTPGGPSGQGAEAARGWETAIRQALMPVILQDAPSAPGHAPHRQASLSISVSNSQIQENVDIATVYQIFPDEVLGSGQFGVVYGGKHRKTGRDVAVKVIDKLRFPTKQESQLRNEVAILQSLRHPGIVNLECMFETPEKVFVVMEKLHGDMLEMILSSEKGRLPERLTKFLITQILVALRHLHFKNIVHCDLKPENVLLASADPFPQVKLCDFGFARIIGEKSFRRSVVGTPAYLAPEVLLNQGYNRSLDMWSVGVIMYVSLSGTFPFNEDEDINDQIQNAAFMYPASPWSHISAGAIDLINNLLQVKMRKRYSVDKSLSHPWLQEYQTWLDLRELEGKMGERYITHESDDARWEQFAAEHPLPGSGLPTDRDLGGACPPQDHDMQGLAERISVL
Sequence of UniProt P68400 (whole entry, looked up): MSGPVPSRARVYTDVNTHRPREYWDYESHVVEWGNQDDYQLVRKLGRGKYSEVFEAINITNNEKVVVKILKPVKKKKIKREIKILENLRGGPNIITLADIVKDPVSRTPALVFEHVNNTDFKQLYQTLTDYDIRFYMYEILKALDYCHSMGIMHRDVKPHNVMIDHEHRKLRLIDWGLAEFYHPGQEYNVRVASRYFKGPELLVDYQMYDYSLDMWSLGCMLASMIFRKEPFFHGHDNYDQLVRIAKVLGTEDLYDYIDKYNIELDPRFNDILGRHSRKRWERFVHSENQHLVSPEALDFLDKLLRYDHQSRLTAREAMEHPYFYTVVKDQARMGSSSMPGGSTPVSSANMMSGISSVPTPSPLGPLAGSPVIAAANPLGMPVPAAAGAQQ
Sequence of UniProt O00506 (whole entry, looked up): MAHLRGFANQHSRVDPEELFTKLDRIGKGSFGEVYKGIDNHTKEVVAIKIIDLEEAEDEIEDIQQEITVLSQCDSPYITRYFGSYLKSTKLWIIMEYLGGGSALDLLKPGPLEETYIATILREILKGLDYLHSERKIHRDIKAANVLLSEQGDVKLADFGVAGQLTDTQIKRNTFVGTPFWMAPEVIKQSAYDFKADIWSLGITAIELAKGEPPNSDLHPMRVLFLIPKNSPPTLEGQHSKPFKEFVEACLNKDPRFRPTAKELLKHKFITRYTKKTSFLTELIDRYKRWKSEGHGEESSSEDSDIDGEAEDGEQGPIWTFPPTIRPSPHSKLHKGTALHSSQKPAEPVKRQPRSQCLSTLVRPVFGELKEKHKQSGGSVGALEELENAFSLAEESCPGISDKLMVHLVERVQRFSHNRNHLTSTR
Sequence of UniProt Q96Q40 (whole entry, looked up): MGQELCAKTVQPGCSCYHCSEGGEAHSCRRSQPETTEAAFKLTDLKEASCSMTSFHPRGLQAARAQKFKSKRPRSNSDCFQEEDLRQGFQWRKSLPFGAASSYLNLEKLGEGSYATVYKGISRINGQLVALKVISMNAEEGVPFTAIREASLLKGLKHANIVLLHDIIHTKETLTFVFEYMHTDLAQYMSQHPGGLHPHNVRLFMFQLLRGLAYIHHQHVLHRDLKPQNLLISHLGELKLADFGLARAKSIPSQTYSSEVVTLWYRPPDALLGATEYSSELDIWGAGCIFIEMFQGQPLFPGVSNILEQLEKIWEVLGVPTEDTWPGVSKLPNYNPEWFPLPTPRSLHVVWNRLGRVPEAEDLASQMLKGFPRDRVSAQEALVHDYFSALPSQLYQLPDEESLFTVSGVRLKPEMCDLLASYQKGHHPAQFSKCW
Sequence of UniProt Q13464 (whole entry, looked up): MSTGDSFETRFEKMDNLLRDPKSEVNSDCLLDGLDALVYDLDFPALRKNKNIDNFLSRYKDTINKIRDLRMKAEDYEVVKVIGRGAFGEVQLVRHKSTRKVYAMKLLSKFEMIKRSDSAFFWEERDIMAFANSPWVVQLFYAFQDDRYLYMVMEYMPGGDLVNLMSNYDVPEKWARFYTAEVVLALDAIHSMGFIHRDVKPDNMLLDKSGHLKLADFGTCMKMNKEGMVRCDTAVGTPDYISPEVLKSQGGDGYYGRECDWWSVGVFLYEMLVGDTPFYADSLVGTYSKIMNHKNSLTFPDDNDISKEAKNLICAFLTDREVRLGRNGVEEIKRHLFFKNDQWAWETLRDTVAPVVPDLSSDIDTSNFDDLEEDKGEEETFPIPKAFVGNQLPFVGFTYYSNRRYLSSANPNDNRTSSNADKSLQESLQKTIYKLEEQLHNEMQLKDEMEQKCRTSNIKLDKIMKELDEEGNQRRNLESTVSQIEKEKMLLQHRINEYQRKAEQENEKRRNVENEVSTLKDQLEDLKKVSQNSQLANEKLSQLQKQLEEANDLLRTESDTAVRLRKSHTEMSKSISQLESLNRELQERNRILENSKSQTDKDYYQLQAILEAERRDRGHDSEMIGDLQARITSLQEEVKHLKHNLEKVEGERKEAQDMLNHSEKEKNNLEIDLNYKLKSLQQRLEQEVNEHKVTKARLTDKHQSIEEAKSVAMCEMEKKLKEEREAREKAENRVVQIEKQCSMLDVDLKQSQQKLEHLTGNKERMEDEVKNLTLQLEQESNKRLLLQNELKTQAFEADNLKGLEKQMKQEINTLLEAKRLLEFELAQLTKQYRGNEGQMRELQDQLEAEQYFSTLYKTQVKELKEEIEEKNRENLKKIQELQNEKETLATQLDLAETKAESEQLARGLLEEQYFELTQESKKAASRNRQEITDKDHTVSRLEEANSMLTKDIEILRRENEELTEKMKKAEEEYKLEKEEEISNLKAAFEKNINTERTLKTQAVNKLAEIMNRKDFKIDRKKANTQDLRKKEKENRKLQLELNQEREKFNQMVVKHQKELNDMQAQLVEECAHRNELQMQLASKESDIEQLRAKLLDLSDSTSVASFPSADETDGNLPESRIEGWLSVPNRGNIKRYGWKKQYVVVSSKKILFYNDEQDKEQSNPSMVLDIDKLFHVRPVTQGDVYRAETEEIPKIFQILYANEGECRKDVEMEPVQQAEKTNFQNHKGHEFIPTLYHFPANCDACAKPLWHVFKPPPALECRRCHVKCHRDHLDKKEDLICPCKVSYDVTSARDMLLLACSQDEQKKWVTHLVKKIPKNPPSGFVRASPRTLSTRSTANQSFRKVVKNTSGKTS
Sequence of UniProt Q13164 (whole entry, looked up): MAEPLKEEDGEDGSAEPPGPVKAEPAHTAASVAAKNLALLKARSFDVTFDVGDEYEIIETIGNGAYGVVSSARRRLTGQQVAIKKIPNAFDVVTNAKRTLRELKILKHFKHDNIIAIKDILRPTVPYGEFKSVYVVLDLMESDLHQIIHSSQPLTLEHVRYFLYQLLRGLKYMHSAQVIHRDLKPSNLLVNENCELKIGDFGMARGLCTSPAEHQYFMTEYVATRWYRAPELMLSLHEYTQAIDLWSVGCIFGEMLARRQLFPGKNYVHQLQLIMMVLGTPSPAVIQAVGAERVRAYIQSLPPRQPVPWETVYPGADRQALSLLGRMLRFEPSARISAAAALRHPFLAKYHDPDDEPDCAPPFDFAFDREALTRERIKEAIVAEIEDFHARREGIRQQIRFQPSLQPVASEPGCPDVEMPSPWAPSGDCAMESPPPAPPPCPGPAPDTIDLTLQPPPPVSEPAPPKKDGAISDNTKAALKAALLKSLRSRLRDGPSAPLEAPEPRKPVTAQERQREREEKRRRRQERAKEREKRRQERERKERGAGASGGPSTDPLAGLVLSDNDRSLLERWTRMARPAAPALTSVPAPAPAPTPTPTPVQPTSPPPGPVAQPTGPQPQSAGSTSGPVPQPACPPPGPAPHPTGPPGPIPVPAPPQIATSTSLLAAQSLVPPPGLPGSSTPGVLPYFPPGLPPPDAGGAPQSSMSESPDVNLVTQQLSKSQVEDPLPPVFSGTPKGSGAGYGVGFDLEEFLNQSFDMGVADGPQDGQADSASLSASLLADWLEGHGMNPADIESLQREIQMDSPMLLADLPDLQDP

Block 1 — host: mouse; sample: microsomes or S9; tested at: 2 µM; time: 0.5 h
| Structure (SMILES) | remaining compound [%] |
| --- | --- |
| CSc1ccc(C2c3cccn3-c3sc4c(c3CN2C(=O)NCc2ccc(F)cc2)CCCC4)cc1 (stereo not shown) | 30.9 |
| CC(C)n1c(=O)ccc2cnc(Nc3ccc(N4CCN(C)CC4)cc3)nc21 | 42.1 |
| Cc1ccc2[nH]cc(CCNC(=O)Nc3ccc(Cl)c(Cl)c3)c2c1 | 25.3 |
| Nc1nc(-c2ccc(F)cc2)nc2oc(-c3ccccc3)nc12 | 23.4 |
| COC(=O)c1cccc2[nH]c(NCc3c(C)nn(C(C)(C)C)c3C)nc12 | 0.159 |
| COc1ccc(-c2[nH]ncc2C(=O)Nc2n[nH]c3cc(Br)ccc23)cc1 | 9.08 |

Block 2 — cell line: HaCaT; tested at: 100 µM; time: 36 h
| Compound | viability |
| --- | --- |
| CC(C)(Oc1ccc(Cl)cc1)C(=O)OCCOC(=O)c1cccnc1 | 110% |
| COc1cc2c(N3CCN(C(=O)Nc4ccc(OC(C)C)cc4)CC3)ncnc2cc1OCCCN1CCCCC1 | 5.79% |
| CC(=O)Nc1ccccc1 | 86.1% |
| Cc1c(O)cccc1C(=O)N[C@@H](CSc1ccccc1)[C@H](O)CN1C[C@H]2CCCC[C@H]2C[C@H]1C(=O)NC(C)(C)C | 13.1% |
| COc1c2occc2cc2ccc(=O)oc12 | 47.5% |
| O=[N+]([O-])c1ccc(O)c2ncccc12 | 7.59% |

Block 3 — technique: competition with immobilised ligand; tested at: 1 µM
SMILES: O=C(NCc1ncc(C(F)(F)F)cc1Cl)c1ccc2c(c1)C1(CCS(=O)(=O)CC1)[C@H](C1CC1)N2S(=O)(=O)c1ccc(F)cc1
| target | observed | remaining binding |
| --- | --- | --- |
| CDK15 (Homo sapiens, UniProt Q96Q40) | cell-free assay | 100% |
| EPHB3 (Homo sapiens, UniProt P54753) | cell-free assay | 100% |
| LATS1 (Homo sapiens, UniProt O95835) | cell-free assay | 91% |
| ROCK1 (Homo sapiens, UniProt Q13464) | cell-free assay | 94% |
| PIP5K1A (Homo sapiens, UniProt Q99755) | cell-free assay | 100% |
| NEK2 (Homo sapiens, UniProt P51955) | cell-free assay | 89% |
| RIPK4 (Homo sapiens, UniProt P57078) | cell-free assay | 93% |
| TEC (Homo sapiens, UniProt P42680) | binding | 100% |
| MAPK7 (Homo sapiens, UniProt Q13164) | cell-free assay | 99% |
| CSNK2A1 (Homo sapiens, UniProt P68400) | cell-free assay | 66% |
| Macrophage colony-stimulating factor 1 receptor, autoinhibited (CSF1R, Homo sapiens, UniProt P07333) | cell-free assay | 100% |
| IKBKB (Homo sapiens, UniProt O14920) | cell-free assay | 92% |
| MAPK12 (Homo sapiens, UniProt P53778) | cell-free assay | 100% |

Block 4 — action: inhibitor; tested at: 1 µM
SMILES: CC#CC(=O)N1CCC[C@H]1c1nc(-c2ccc(C(=O)Nc3ccccn3)cc2)c2c(N)nccn12
| target | observed | inhibition |
| --- | --- | --- |
| MAP3K6 (Homo sapiens, UniProt O95382) | enzyme activity | 0% |
| STK25 (Homo sapiens, UniProt O00506) | enzyme activity | 0% |
| Tyrosine-protein kinase ABL1, phosphorylated (ABL1, Homo sapiens, UniProt P00519) | enzyme activity | 1% |
| Tyrosine-protein kinase JAK1, JH2 pseudokinase domain (JAK1, Homo sapiens, UniProt P23458) |  | 21% |
| PRKD2 (Homo sapiens, UniProt Q9BZL6) | enzyme activity | 0% |
| Tyrosine-protein kinase ABL1, non-phosphorylated (ABL1, Homo sapiens, UniProt P00519, Q252H) | enzyme activity | 31% |

For quick reference, copied from above (block 4):
| target | observed | inhibition |
| --- | --- | --- |
| MAP3K6 (Homo sapiens, UniProt O95382) | enzyme activity | 0% |
| Tyrosine-protein kinase JAK1, JH2 pseudokinase domain (JAK1, Homo sapiens, UniProt P23458) |  | 21% |
| STK25 (Homo sapiens, UniProt O00506) | enzyme activity | 0% |
